{"data": "Results from different studies", "target": "Serine/threonine-protein kinase 32A (STK32A, Homo sapiens, UniProt Q8WU08)", "note": "Protocols differ between the studies behind these lines."}
{"SMILES": "CNC1C[S+]2CC[S+]3CC[S+](C1)[Ru-4]321([N]=C=S)[n]2c3ccc(OC)cc3c3c4c(c5cc(F)c[n+]1c5c32)C(=O)NC4=O (stereo not shown)", "method": "KinomeScan", "tested at": "0.1 µM", "relative to": "untreated", "endpoint": "remaining binding", "value": "88%"}
{"SMILES": "C=CC(=O)N1CCCC(n2c(=O)c3ncccc3n(Cc3ccc(Oc4ccccc4)cc3)c2=O)C1 (stereo not shown)", "effect on": "cell-free assay", "method": "competition with immobilised ligand", "tested at": "1 µM", "endpoint": "remaining binding", "value": "90%"}
{"SMILES": "Nc1ncc2c(n1)-c1c([nH]c3ccc(C4=CCOCC4)cc13)CCC2", "effect on": "binding", "method": "competition with immobilised ligand", "tested at": "1 µM", "endpoint": "remaining binding", "value": "100%"}
{"SMILES": "CCN1CCN(Cc2ccc(NC(=O)c3ccc(C)c(NC(=O)c4cncc(-c5cnn(C)c5)c4)c3)cc2C(F)(F)F)CC1", "effect on": "binding", "method": "competition with immobilised ligand", "tested at": "1 µM", "endpoint": "remaining binding", "value": "100%"}
{"SMILES": "CNC(=O)C1CCN(c2cc(C)c(F)cc2NC(=O)c2ccc(-c3cc(O)ccc3C)c(C)c2)CC1", "effect on": "binding", "method": "competition with immobilised ligand", "tested at": "1 µM", "endpoint": "remaining binding", "value": "100%"}
{"SMILES": "COc1c(Cl)cccc1Nc1c(-c2ccncc2C#C[C@@]2(C)CCCN2C(=O)/C=C/CN(C)C)[nH]c2c1C(=O)NCC2", "effect on": "binding", "method": "competition with immobilised ligand", "tested at": "3 µM", "endpoint": "remaining binding", "value": "27%"}
{"SMILES": "CC(C)=CC1OC(C)(C)C2C=C3C(=O)C(Cl)=CC(O)C3C3C(O)C4OC4C(=O)C132 (stereo not shown)", "effect on": "cell-free assay", "method": "competition with immobilised ligand", "tested at": "10 µM", "endpoint": "remaining binding", "value": "80%"}
{"SMILES": "C=CC(=O)N1CCc2ccc(-n3c(=O)ccc4cnc5ccc(-c6cnn(C)c6)cc5c43)cc21", "method": "KINOMEscan", "tested at": "1 µM", "relative to": "DMSO control", "endpoint": "remaining binding", "value": "100%"}
{"SMILES": "CN1CC[C@@H](COc2cnc(C#N)cc2-c2ccn3nc(NC(=O)C4CC4)cc3c2)C1", "effect on": "enzyme activity", "mode": "inhibitor", "tested at": "1 µM", "endpoint": "inhibition", "value": "-4%"}
{"SMILES": "CNC(=O)C[C@H](Cc1ccc(C#N)cc1)NC(=O)c1cc(-c2ccc(CN[C@H](C)c3ccc(C)cc3)o2)ccc1Cl", "effect on": "enzyme activity", "mode": "inhibitor", "tested at": "1 µM", "endpoint": "activity vs control", "value": "100%"}
{"SMILES": "COc1cc(Nc2nccc(-c3cnn4nc(OC)ccc34)n2)cc(C(F)(F)F)c1", "effect on": "binding", "method": "competition with immobilised ligand", "tested at": "1 µM", "endpoint": "remaining binding", "value": "94%"}
{"SMILES": "CCN1CCN(Cc2ccc(C(=O)Nc3ccc(C)c(NCc4cnc5[nH]ccc5c4OC)c3)cc2C(F)(F)F)CC1", "effect on": "binding", "method": "competition with immobilised ligand", "tested at": "1 µM", "endpoint": "remaining binding", "value": "68%"}
{"SMILES": "Cc1ccc(-c2c(/C=C(\\C#N)C(=O)NC(C)C)n(CCCO)c3ncnc(N)c23)cc1", "effect on": "cell-free assay", "method": "competition with immobilised ligand", "tested at": "1 µM", "endpoint": "remaining binding", "value": "96%"}
{"SMILES": "Cc1cnc2nc1Nc1cccc(c1)COC/C=C/COCc1cc(ccc1OCCN1CCOCC1)N2", "effect on": "binding", "method": "competition with immobilised ligand", "tested at": "0.1 µM", "endpoint": "remaining binding", "value": "97%"}
{"SMILES": "COc1cc(Nc2nc(C)cc(-c3cnn4nc(OC)ccc34)n2)cc(C(F)(F)F)c1", "effect on": "binding", "method": "competition with immobilised ligand", "tested at": "1 µM", "endpoint": "remaining binding", "value": "63%"}
{"SMILES": "O=C(Cc1ccc(OCc2ccccc2)cc1)NC1(C(=O)O)CCN(C(=O)c2ccc(-c3cccc(Cl)c3)cc2)CC1", "effect on": "enzyme activity", "mode": "inhibitor", "tested at": "10 µM", "endpoint": "activity vs control", "value": "98%"}
{"note": "For quick reference, copied from above:"}
{"SMILES": "COc1cc(Nc2nccc(-c3cnn4nc(OC)ccc34)n2)cc(C(F)(F)F)c1", "effect on": "binding", "method": "competition with immobilised ligand", "tested at": "1 µM", "endpoint": "remaining binding", "value": "94%"}
